# Experimental data of several laboratories.
# Each line is one published result; not all experiments were run side by side. Values joined by “and” are separate records of one study, mostly repeats; a detail may differ. Numbers after ± are the reported error.
# UniProt Q16816, sequence (whole entry, looked up): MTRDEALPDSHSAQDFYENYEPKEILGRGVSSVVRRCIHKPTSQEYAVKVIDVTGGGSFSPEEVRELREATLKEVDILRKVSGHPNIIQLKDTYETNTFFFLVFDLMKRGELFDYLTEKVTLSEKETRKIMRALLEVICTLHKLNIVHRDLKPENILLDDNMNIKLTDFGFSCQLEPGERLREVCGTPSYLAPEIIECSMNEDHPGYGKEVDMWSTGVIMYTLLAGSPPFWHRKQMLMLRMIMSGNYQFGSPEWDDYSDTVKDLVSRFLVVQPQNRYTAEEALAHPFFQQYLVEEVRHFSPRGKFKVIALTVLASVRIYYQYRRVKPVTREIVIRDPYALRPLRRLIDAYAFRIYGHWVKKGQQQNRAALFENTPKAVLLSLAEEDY
# UniProt Q15349, sequence (whole entry, looked up): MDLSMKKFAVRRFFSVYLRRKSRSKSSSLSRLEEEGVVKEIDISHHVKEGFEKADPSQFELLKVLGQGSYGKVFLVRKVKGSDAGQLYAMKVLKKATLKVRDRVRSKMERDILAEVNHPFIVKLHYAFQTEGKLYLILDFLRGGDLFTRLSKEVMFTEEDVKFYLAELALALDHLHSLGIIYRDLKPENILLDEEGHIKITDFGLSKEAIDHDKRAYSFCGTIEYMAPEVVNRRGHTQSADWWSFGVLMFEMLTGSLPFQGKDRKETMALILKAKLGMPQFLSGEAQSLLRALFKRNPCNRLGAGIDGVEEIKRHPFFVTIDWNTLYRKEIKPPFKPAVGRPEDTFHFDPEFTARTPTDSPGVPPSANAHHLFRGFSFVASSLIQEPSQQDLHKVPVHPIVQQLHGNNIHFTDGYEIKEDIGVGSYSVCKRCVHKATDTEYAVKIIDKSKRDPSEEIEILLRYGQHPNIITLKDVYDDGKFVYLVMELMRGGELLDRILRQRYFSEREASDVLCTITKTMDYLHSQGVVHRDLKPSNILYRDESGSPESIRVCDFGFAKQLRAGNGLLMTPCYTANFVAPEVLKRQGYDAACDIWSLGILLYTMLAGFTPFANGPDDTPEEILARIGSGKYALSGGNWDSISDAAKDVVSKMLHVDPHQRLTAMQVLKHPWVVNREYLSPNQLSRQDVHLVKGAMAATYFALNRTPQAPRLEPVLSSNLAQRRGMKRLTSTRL
# UniProt P51451, sequence (whole entry, looked up): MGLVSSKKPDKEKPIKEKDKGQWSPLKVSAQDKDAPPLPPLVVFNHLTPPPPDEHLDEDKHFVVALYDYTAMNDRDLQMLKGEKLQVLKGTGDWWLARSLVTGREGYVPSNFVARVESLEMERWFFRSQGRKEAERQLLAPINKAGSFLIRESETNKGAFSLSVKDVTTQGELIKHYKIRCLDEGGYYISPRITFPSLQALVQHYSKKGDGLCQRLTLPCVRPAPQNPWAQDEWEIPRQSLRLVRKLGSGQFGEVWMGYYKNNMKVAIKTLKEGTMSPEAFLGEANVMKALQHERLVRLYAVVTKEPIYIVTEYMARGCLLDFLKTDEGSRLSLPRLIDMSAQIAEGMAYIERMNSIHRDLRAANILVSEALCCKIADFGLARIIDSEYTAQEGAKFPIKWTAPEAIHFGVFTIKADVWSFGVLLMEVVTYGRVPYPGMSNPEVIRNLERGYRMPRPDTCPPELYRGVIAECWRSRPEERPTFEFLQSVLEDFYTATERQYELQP
Structure (SMILES),target or system,test,test system,setting,how to read,quantity,result
O=C1NC2(CC2)COc2ncc(F)cc2[C@H]2COCCN2c2ccn3ncc1c3n2,,,"Sprague-Dawley rat, female, serum","oral, 2.5 mg/kg/day, end of recovery, 4-week subacute toxicity",,serum hepatic lipase activity,3.4 ± 0.6 U/L
CC(C)(C)C(=O)OCOP(=O)(OCOC(=O)C(C)(C)C)C1CCCN(O)C1=O (stereo not shown),EKVX,,,,,log LC50,> -4 log M
CN(C)CCCNC(=O)[C@@H]1NC(=O)[C@@H]2Cc3ccc(cc3)Oc3cc4cc(c3O)-c3ccc5c(c[nH]c5c3)C[C@@H](NC(=O)C(NC(=O)CCCCCN)c3ccc(O)cc3)C(=O)N[C@H](c3ccc(O)cc3)C(=O)N[C@H]4C(=O)N[C@@H](C(=O)N2C)c2ccc(cc2)Oc2cc1ccc2O (stereo partly shown),human red blood cells,,PBS,"8 µg/mL, 1 h, pH 7.4, 37 °C",,hemolysis,2.84%
O=C(c1cccc(-c2ccc3ncnc(Nc4ccc(OCc5cccc(F)c5)c(Cl)c4)c3c2)c1)N1CCOCC1,NIH 3T3,PrestoBlue,,96 h,,TC50,5.1 µM
COc1ccccc1-c1n[nH]c2nc(NC3CCN(C(=O)Cc4ccc(F)cc4F)CC3)ncc12,,"bead binding, competition bead pull-down, refers to: LINJ.26.2250",Leishmania donovani extract,10 µM,reference: vehicle,relative abundance,1.22
C/C=C(/C)C(=O)OC[C@H]1[C@@H](Cc2ccc(OC)c(OC)c2)CO[C@@H]1c1ccc(OC)c(OC)c1,rat aortic VSMCs,,,"30 µM, 24.5 h",,LDH release,3.1 ± 0.7%
Cc1cc(-c2ccc3ccccc3c2)nnc1NCCN1CCN(C)CC1,Caco-2,,,"5 µM, 0.5 h",,Papp A-B,18.9 ×10⁻⁶ cm/s
CNC(=O)C[C@H](Cc1ccc(F)cc1)NC(=O)[C@@H](Cc1ccc(Cl)cc1Cl)NC(=O)[C@H](N)Cc1ccccc1C#N,Huh-7-ACE2,CellTiter-Glo,,"3.125 µM, 48 h, unit not given",reference: DMSO,viability,0.905 and 0.899 and 0.928
N=C(N)NCCC[C@H](NC(=O)[C@H](CCCNC(=N)N)NC(=O)[C@H](CCCNC(=N)N)NC(=O)[C@H](CCC(N)=O)NC(=O)[C@H](CCCNC(=N)N)NC(=O)[C@H](CCCNC(=N)N)NC(=O)[C@H](CCCCN)NC(=O)[C@H](CCCCN)NC(=O)[C@H](CCCNC(=N)N)NC(=O)CNC(=O)[C@H](Cc1ccc(O)cc1)NC(=O)[C@H](Cc1ccccc1)NC(=O)[C@H](Cc1ccccc1)NC(=O)[C@H](Cc1ccccc1)NC(=O)OCC1c2ccccc2-c2ccccc21)C(=O)O,RAW264.7,flow cytometry,,FITC-labelled compound,reference: control,cellular internalization,decreased
CCOc1ccc(CN2CC[C@H]2C(=O)NC)cc1-c1cccc(C(=O)NC[C@@H]2COC(C)(C)O2)c1,Huh-7-ACE2,CellTiter-Glo,,"1.562 µM, 48 h, unit not given",reference: DMSO,viability,0.921 and 0.933 and 0.937
CC(C)[C@H]1NC(=O)C[C@H]2/C=C/CCSSC[C@@H](NC1=O)C(=O)N[C@H](Cc1cccc3ccccc13)C(=O)NCC(=O)O2,"Ribosomal protein S6 kinase alpha-2 (RPS6KA2, Homo sapiens, UniProt Q15349)",,,10 µM,,inhibition,-1.6%
CNC(=O)CC1CN(C(=O)c2ccc(C(F)(F)F)cn2)CCN1C(=O)c1cccnn1 (stereo not shown),Huh-7-ACE2,CellTiter-Glo,,"0.000381 µM, 48 h, unit not given",reference: DMSO,viability,1.12 and 0.994 and 0.969
C#Cc1ccc(C[C@H]2C(=O)N[C@@H](CC(C)C)C(=O)N(C)[C@@H](C)C(=O)N[C@@H](CC(C)C)C(=O)N(C)[C@H](CC(C)C)C(=O)N(C)[C@@H](Cc3ccccc3)C(=O)N[C@@H](CC(C)C)C(=O)N(C)[C@@H](C)C(=O)N[C@@H](CC(C)C)C(=O)N(C)[C@H](CC(C)C)C(=O)N2C)cc1,LLC-PK1,,Caco-2,,,Papp A→B,0.02 ×10⁻⁶ cm/s
CN(C)[C@H]1C[C@@]23CC[C@@]4(O2)C(=CC[C@]2(C)[C@@H](c5ccc6ccncc6c5)CC[C@H]24)C=C3[C@@H](O)[C@@H]1O,"Phosphorylase b kinase gamma catalytic chain, skeletal muscle/heart isoform (PHKG1, Homo sapiens, UniProt Q16816)","probe labelling, inhibitor, KiNativ ATP probe MS",native lysate,1 µM,,inhibition,9.8%
COc1ccccc1CCNC1CCCc2c1[nH]c1ccc(C)cc21 (stereo not shown),A549,,,"50 µM, 23 h",,non-viable cells,70.3 ± 6%
CS(C)(=O)=Nc1ccc(-c2ccc(-c3nc4cc(O[C@@H]5CO[C@H]6[C@@H]5OC[C@H]6O)[nH]c4cc3F)cc2)cc1,"Tyrosine-protein kinase Blk (BLK, Homo sapiens, UniProt P51451)","enzyme activity, inhibitor",,10 µM,,inhibition,9%
CC(=O)NCC(=O)N[C@@H](CCCNC(=N)N)C(=O)N[C@@H](CCCCN)C(=O)N[C@@H](CCCCN)C(=O)N[C@@H](CCCNC(=N)N)C(=O)N[C@@H](CCCNC(=N)N)C(=O)N[C@@H](CCC(N)=O)C(=O)N[C@@H](CCCNC(=N)N)C(=O)N[C@@H](CCCNC(=N)N)C(=O)N[C@@H](CCCNC(=N)N)C(=O)N1CCC[C@H]1C(=O)N[C@@H](CCC(N)=O)C(N)=O,HEK293T cells,LC-MS,cytoplasmic fraction,"20 µM, 24 h",,peptide concentration,228 pmol/mg protein and 224 pmol/mg protein and 234 pmol/mg protein
CNC(=O)C[C@H](Cc1ccncc1)NC(=O)[C@@H](Cc1cccc(Br)c1)NC(=O)[C@@H](N)Cc1cccc(F)c1,Huh-7-ACE2,CellTiter-Glo,,"0.781 µM, 48 h, unit not given",reference: DMSO,viability,0.982 and 1.06 and 1.03
COc1ccc(-c2cnc3c(C#Cc4cccnc4)snc3c2)cc1OC,human cells,,,48 (unit not given),,CC90,> 10 µM

# Excerpt of the above:
Structure (SMILES),target or system,test,test system,setting,how to read,quantity,result
CN(C)CCCNC(=O)[C@@H]1NC(=O)[C@@H]2Cc3ccc(cc3)Oc3cc4cc(c3O)-c3ccc5c(c[nH]c5c3)C[C@@H](NC(=O)C(NC(=O)CCCCCN)c3ccc(O)cc3)C(=O)N[C@H](c3ccc(O)cc3)C(=O)N[C@H]4C(=O)N[C@@H](C(=O)N2C)c2ccc(cc2)Oc2cc1ccc2O (stereo partly shown),human red blood cells,,PBS,"8 µg/mL, 1 h, pH 7.4, 37 °C",,hemolysis,2.84%
O=C(c1cccc(-c2ccc3ncnc(Nc4ccc(OCc5cccc(F)c5)c(Cl)c4)c3c2)c1)N1CCOCC1,NIH 3T3,PrestoBlue,,96 h,,TC50,5.1 µM
COc1ccccc1-c1n[nH]c2nc(NC3CCN(C(=O)Cc4ccc(F)cc4F)CC3)ncc12,,"bead binding, competition bead pull-down, refers to: LINJ.26.2250",Leishmania donovani extract,10 µM,reference: vehicle,relative abundance,1.22
